Experimental data gathered from unrelated publications.
Numbered parts are unrelated; each lists some results of a single study. Positions count from the first letter of the parent shown.

Set 1
Target: CCNB1, cyclin fold, Cln2 fusion (human)
Method: yeast growth competition, sequencing
Medium: yeast
Notes: weak parent motif
Baseline: not given
Reading: higher = stronger binding
Starting sequence: CDC25A docking peptide (human); PPHRRRLLFACSP
For `R4I`, “normalised enrichment score” read 1.26.
Under “normalised enrichment score”, `H3R` is recorded as 0.864.
`A10M` — result for “normalised enrichment score”: 0.716.
`P2I`: “normalised enrichment score” 0.752.
`P2T`: “normalised enrichment score” 1.11.
For `L7C`, “normalised enrichment score” read 0.459.
`S12I`: “normalised enrichment score” 1.29.
`F9W`: “normalised enrichment score” 0.464.
For `P2Q`, “normalised enrichment score” read 1.16.
For `C11Q`, “normalised enrichment score” read 0.839.
`C11G` — result for “normalised enrichment score”: 0.21.
`F9K` — result for “normalised enrichment score”: 0.342.

Set 2
Target: RING finger protein unkempt homolog, zinc fingers 1-6, GST-SBP tag (UNK, Homo sapiens, UniProt Q9C0B0, residues 30-357)
Method: RNA Bind-n-Seq
Molecule type: RNA
Medium: in vitro
Tested at: not given
Notes: RNA with constant flanks, human and mouse sites, ends assumed
Baseline: input RNA pool
Reading: higher = stronger binding
Shared flanks, not repeated: GGGAGUUCUACAGUCCGACGAUC … CAACAGAGGAUUGAGCAUCA
Residues (chain): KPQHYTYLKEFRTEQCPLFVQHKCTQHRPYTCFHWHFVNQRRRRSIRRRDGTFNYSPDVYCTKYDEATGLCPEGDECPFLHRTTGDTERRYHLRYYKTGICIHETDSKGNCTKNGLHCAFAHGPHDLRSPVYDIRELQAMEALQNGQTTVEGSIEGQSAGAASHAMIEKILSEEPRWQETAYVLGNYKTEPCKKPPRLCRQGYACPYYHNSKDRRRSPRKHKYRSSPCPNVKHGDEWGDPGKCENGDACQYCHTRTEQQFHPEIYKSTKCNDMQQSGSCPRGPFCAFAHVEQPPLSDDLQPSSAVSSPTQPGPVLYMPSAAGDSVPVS
The bound/input enrichment of `CAGAUUCCCAGCCUUUCAGCCAACCGUUCUCUCACAGAAGGCCUUGUCCUGGACACAAUGAAUGAUAGCCUCAGCAAGAUCCUUCUAGACAUCAGUUUCCCUGGCCUGGAGGAGGACCCU` is reported as 0.165 ratio.
The bound/input enrichment of `CUAAUCGUGUCAGCAGAAGCACUUACUAUGAAAUCAUUUUUUUAAAGAAAUCUGCACAGUAGAUUUUUACAUUGAGCUGAGAUGAAUAUGCCUUGAAAAUAAUAUAAGUGUGAAAUUGUU` is reported as 0.424 ratio.
`UCCCCUACUAGUGACCUCAUGCUGGCCAGUGUUCUGUGGGACAGAGGAGGAUCAAGUUUCUACACCCUGACGAGUUCAAACAUCAGCAAAUGGGAACUGGACGAUUCUUCAGAGAAGCAG` has a bound/input enrichment of 0.393 ratio.
`UUAGGUGAAGUGGUUUAAACCAAACGGAACUCUUCAUCUUAAACUACACGUUGAAAAUCAACCCAAUAAUUCUGUAUUAACUGAAUUCUGAACUUUUCAGGAGGUACUGUGAGGAAGAGC` gave a bound/input enrichment of 0.158 ratio.
`GACCGAAACCCCUACUAUGGGGGUGAGAGCUCUUCCAUCACACCCCUGGAGGAGCUAUAUAAGCGCUUUCAGAUACUGGAAGGGCCCCCUGAAUCAAUGGGCCGGGGCCGAGACUGGAAU` has a bound/input enrichment of 0.192 ratio.
With `UAUGCCUGGAUGUGAGGAGUGGUAAUUCGUGUCCUCCUCAUGCUUGUGAAGCAGGCAUUUGAUCAAGCUAUUUCCUGAUUAUUCCAAAUGUCAUUUACAUUCAAAACAUUUUAACACUUG` the bound/input enrichment was 0.218 ratio.
For `CUUGGGGUCAGAGAAAGGGACAGAUACAGAAGGACCUUGCUUGCAGGAAGCCAUGCAGUUAGUUUCUGCAGUUAGUCGUGUGAGGCUAGGUGGUUGGGCAGGCCUCGGGCUGUAGGUGUU`, the bound/input enrichment was 0.69 ratio.
`CCCUGACUGCAGAGCCUUCAUCGUCUGGCUGGCCAACGGGGACACCCUCCGUGUCUUCAAGAUGACCAAGCGGGAGGAUGGGGGCUACACCUUCACAGCCACCCCAGAGGACUUCCCUAA` gave a bound/input enrichment of 0.0876 ratio.
For `CUCAUUGUCUUAGGAUAUAAUGGAUCUCUCCCAAACGGUGAUAGAGGAAGGAGGAAAAGUAGGUUUGCUUUGUUUAAAAGACCUAAGGCAAAUGGGGUGAAGCCUAGCACCGUGCACAUU`, the bound/input enrichment was 0.361 ratio.
With `GGAAAUCGGGCUGAAGCGACUGAGUCCGCGAUGGAGAGAGAAAAGGAACAGUUCCGUAAGCUCUUUAUUGGUGGCUUAAGCUUUGAAACCACAGAAGAAAGUUUGAGGAACUACUACGAA` the bound/input enrichment was 0.356 ratio.
With `AUAAGCUGCACUAGGUAUUCACAAAUGGAUCCAAGAUAAAAUCAUUUUUCUGAAACUUUUUUUAGUGAGAUGGUUUUCCAGCAAAUAGCAUUUACAAGAUAAAGUGAUUAUGUUUUUAAC` the bound/input enrichment was 4.61 ratio.

Set 3
Substance: PhoQ, residues 284 288 289 292 302 303 GNNTDL
Method: Sort-seq
Refers to: YFP reporter
Medium: E. coli
Notes: PhoQ-PhoP variant library
With: 10 µM Mg2+
Baseline: high Mg2+ state
Reading: higher = stronger signaling
The fold induction was 2.63 (PhoP, residues 12 14 15 18 19 QYCSL (Escherichia coli, UniProt P23836)).
For PhoP, residues 12 14 15 18 19 STHWV (Escherichia coli, UniProt P23836): fold induction read 6.78.
PhoP, residues 12 14 15 18 19 SHWTV (Escherichia coli, UniProt P23836) — fold induction: 3.99.

Set 4
Target: RNA binding protein fox-1 homolog 2, RRM domain, GST-SBP tag (RBFOX2, Homo sapiens, UniProt O43251-10, residues 100-194)
Method: RNA Bind-n-Seq
Molecule type: RNA
Medium: in vitro
Tested at: 365 nM
Notes: natural RNA segment, single round, ends assumed
Baseline: no-protein control
Reading: higher = stronger binding
Shared flanks, not repeated: GGGAGUUCUACAGUCCGACGAUC … UGGAAUUCUCGGGUGCCAA
Target sequence (chain): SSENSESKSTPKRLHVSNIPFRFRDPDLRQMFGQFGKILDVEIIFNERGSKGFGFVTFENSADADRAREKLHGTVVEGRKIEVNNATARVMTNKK
`GUUUAUAUGAGUUUGUUUUGUUCUAAAAUACCCAAACAGUUCUGGUCAAGCGGGGCUAUGCCCGUCUGGCCCAAAACACAGUCCGUUAUUAACGAGAUGGCCCUGGCAGG` — result for “RBNS enrichment (R)”: 0.228.
Under “RBNS enrichment (R)”, `AGAGAAGGGCUUUGUAAAUAGCAUUUAAUGUUAAGAACAUCUGCAUUCUCUUUGUAGCUGAGUGCGUGGCUUUGAAAGUUGUGGAGGAAUUAAUACAGACACCAGAUUUU` is recorded as 0.716.
`UGCCUUUCAUCACCAUUUUUCCUGAGUAGGGCUUAGUUUUAUUCUGGAAAGACAUCUCCAAGGUGAGGUCCACCCCCACAGCAGACCUCAAGUAGAAAUUGCCCAAUUUU` — result for “RBNS enrichment (R)”: 0.313.
For `GCAAUAGCAUUUAGGGAUGCACGCACAGUGGUAAUUUAUUACUCAGUUCCGGUUAUGUUUUUCUCCAAAACCUGAACAUUUUUACUCUGUUGGCUCAUUCUAUUUUGACU`, “RBNS enrichment (R)” read 0.972.
`GCUUCAUUGCCAUGUUCUGUGGGUGUUUGGCAGGUUACCGAUGGGGAAGAUUCUUGUCACAGAAUCAGCAAUACCAUAGUUUUUCUACAUGUGCUCAGCUGGGGGUGUGG`: “RBNS enrichment (R)” 0.613.
`ACUCUAAUCAAAGGACUCUUUCUAAACCAUAUUUAUAGCUUUCUUAACCUACACAUAGUCUAUACAUAGAUGCAUAUUUUACCCCCAGCUGGCUAGAGAUUUAUUUGUUG` — result for “RBNS enrichment (R)”: 1.23.
`UCCCAGGCCAGCAGCCCCUGAUCAGUCCUAACUUACCUGAAAACACCAGGCCCCAGAGCAGACUCAUCCGGGGUGGCAGGUCCCUAAAGCAAGGAAGGCCUCACACUGUC`: “RBNS enrichment (R)” 0.238.
`GUACUUUGCCUGGCGCUGUGCGCAAGGUCAGAAAACUUACUGCUAGUACCUAGAAACACACAAGGCUGCCCAGCCAAAUCUUAAUGUAAAGUAGCUAGAGCCAUGGAAGU` — result for “RBNS enrichment (R)”: 0.348.
`CAGCAAGAAAACAGACCUCAAGUUUCCACUCUGACCUGCCAGGUGGCCACUGGGUAAACAAGUCCUUUUGUCUAUGUAUGACAGCAAAGCAAGGACACCUGGGCAGUAAC`: “RBNS enrichment (R)” 0.637.
`AAGACAGUGGGCUCCAUGCCUCUUUCCCCUGGGGUUUGCUUCAGGGGCUCCUCCCCGAGGGCUUGCUCCUGGUGGCAGCAGCUGAGAUCAGGACAUCUGUGGCCCUGAGC`: “RBNS enrichment (R)” 0.41.
`GACAGAGGUGUGAUUCCAGGCCUGGUGUCACAUGACACCAGCAUGCAUUGCAGGAUUAUUAGUGUAUUUUGAGUCUGUAAAAAUAAUAAAUAUGUUUGAAGUAGUUUCCC`: “RBNS enrichment (R)” 0.583.

A few entries again (set 1):
Under “normalised enrichment score”, `H3R` is recorded as 0.864.
`A10M` — result for “normalised enrichment score”: 0.716.
`P2I`: “normalised enrichment score” 0.752.
